# Assay results pooled from the literature.
# Lines come from different studies, so protocols differ. Numbers after ± are the reported error.
# SCN5A: Sodium channel protein type 5 subunit alpha (SCN5A, Homo sapiens, UniProt Q14524)
# UniProt Q14524, sequence (whole entry, looked up): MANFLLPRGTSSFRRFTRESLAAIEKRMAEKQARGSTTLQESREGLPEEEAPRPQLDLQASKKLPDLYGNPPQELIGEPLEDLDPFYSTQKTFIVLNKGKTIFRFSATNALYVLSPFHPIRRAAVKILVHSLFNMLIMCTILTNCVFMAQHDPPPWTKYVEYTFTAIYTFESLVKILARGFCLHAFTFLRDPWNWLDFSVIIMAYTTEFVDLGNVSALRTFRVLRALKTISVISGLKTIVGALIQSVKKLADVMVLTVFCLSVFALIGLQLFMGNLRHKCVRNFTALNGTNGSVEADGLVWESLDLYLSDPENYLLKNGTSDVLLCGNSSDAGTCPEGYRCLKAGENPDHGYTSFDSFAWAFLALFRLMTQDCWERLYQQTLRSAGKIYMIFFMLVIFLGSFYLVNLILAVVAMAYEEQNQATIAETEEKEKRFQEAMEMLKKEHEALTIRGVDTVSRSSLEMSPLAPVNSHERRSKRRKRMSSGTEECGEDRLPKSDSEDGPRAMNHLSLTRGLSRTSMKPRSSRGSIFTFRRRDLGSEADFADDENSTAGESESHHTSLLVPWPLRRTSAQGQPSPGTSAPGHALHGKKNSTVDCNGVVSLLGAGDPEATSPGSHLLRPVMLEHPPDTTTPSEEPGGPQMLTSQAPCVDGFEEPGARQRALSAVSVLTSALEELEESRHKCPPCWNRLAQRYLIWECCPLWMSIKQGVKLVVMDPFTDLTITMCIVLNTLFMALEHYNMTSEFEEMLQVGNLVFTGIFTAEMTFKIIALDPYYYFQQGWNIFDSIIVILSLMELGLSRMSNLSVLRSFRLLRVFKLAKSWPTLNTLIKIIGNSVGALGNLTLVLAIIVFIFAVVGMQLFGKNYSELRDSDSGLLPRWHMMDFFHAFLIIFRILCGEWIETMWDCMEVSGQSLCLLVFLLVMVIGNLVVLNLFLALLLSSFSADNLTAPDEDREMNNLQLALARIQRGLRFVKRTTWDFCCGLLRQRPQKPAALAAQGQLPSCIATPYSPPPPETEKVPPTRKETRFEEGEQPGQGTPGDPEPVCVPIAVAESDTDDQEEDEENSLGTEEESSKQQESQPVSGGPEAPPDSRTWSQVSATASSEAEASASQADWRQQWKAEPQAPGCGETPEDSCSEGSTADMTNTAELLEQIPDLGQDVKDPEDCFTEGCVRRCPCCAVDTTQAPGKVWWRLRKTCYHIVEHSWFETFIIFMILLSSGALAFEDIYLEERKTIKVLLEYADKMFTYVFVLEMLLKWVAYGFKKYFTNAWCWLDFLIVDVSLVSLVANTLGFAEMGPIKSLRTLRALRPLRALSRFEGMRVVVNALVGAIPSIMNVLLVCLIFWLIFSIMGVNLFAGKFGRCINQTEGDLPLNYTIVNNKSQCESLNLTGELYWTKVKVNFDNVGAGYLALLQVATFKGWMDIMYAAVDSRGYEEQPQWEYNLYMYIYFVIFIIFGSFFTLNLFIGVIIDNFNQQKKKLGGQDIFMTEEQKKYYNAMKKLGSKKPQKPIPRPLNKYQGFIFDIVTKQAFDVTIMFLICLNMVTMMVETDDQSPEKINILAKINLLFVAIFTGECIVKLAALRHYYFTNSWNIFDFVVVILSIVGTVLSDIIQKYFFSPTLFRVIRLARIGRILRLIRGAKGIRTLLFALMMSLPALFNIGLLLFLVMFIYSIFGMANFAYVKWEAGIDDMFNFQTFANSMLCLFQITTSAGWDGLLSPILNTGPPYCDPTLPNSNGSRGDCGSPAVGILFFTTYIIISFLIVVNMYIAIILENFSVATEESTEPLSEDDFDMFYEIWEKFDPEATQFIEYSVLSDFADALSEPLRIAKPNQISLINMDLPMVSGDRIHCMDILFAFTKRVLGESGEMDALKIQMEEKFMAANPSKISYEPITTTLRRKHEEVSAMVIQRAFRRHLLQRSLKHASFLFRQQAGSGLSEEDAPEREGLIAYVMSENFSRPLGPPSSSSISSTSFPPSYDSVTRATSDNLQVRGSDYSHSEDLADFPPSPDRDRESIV
# SLC47A1: Multidrug and toxin extrusion protein 1 (SLC47A1, Homo sapiens, UniProt Q96FL8)
# UniProt Q96FL8, sequence (whole entry, looked up): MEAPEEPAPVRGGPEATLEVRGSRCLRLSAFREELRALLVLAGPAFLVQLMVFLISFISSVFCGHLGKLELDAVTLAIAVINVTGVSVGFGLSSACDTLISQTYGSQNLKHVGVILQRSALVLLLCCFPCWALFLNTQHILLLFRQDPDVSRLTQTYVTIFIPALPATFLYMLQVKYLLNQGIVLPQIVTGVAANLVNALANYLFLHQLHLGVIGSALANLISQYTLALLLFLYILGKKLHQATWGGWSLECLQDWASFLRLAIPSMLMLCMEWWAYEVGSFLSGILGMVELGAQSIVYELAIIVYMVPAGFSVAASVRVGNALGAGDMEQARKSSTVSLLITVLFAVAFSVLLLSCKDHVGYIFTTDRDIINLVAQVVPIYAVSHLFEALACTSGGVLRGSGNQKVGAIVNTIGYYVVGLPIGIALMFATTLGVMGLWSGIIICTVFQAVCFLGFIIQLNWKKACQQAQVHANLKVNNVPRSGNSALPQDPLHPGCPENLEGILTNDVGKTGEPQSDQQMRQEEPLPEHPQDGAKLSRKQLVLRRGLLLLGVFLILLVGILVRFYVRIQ
# 7-alpha-hydroxycholest-4-en-3-one 12-alpha-hydroxylase: 7-alpha-hydroxycholest-4-en-3-one 12-alpha-hydroxylase (Homo sapiens, UniProt Q9UNU6)
# UniProt Q9UNU6, sequence (whole entry, looked up): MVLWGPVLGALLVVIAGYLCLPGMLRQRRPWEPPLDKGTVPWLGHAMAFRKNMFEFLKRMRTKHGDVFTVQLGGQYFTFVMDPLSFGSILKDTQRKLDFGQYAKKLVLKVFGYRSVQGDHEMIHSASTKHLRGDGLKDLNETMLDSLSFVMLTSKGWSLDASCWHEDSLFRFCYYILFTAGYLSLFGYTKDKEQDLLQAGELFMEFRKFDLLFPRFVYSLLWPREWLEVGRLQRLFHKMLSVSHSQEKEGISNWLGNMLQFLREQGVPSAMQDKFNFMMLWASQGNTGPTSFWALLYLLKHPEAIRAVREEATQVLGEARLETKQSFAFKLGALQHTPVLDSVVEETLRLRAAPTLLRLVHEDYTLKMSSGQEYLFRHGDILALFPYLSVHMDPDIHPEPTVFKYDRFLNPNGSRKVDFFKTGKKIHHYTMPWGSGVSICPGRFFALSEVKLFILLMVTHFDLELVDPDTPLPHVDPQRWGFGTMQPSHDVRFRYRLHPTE
# CYP1A2: Cytochrome P450 1A2 (CYP1A2, Homo sapiens, UniProt P05177)
# CYP2E1: Cytochrome P450 2E1 (CYP2E1, Homo sapiens, UniProt P05181)
# UniProt P05181, sequence (whole entry, looked up): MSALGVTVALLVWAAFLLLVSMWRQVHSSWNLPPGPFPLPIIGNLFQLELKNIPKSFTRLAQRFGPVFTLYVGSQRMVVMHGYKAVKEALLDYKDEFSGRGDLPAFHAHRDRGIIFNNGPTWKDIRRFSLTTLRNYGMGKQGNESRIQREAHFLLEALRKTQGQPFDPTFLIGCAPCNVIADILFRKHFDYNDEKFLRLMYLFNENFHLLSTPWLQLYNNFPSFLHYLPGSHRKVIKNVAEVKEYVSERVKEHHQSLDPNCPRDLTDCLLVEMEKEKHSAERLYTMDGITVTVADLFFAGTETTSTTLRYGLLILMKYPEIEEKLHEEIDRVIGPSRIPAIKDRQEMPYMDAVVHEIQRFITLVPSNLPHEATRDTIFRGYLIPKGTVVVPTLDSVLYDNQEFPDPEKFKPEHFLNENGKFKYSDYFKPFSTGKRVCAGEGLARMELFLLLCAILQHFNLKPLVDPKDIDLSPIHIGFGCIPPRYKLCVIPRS
# UniProt P06873, sequence (whole entry, looked up): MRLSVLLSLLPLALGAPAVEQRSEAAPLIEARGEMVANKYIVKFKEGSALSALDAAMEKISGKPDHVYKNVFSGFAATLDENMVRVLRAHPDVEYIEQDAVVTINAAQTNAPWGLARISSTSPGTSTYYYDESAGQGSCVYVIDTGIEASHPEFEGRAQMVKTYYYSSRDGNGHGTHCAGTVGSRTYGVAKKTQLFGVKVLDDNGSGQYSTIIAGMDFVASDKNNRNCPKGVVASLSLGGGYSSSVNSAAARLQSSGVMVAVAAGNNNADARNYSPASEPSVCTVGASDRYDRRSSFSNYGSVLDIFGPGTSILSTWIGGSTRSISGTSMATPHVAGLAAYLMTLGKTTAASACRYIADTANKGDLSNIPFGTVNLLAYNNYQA
SMILES,target or system,assay,test system,conditions,scale,measurement,result
COC(=O)[C@@H](NC(=O)c1nn(Cc2ccc(F)cc2)c2cc(OCCCCNC(=N)N)ccc12)C(C)(C)C,central CB1 receptor,,mouse,intraperitoneal,,lowest dose producing hypothermia,20 mg/kg
O=C1NC2(CC2)COc2ncc(F)cc2[C@H]2COCCN2c2ccn3ncc1c3n2,,,"Sprague-Dawley rat, female, serum","oral, 5 mg/kg/day, end of treatment, 4-week repeated-dose toxicity",,albumin/globulin ratio,1.49 ± 0.17
C[C@@]12CC[C@@H]3[C@H](CC[C@@H]4C[C@@H](O)CC[C@]43C)[C@H]1CC(=O)C2,SCN5A,"ion current, blocker",,,,IC50,17.2 µM
CNC(=O)C1CCCN(C(=O)C2CC3CCC2N3C(=O)[C@@H]2C[C@@H](O)CN2C(=O)NCc2cccc(Cl)c2F)C1 (mixture of isomers),CYP3A4 (human),"inhibitor, time-dependent inhibition",,"0.0686 µM, preincubated with NADPH, together with: midazolam substrate",reference: negative control,remaining activity,103%
Cc1cc(-c2ccc3ccccc3c2)nnc1NCCN1CCN(C)CC1,SLC47A1,"transporter uptake, inhibitor",,10 µM,,inhibition,89%
CC12CCC(=O)C=C1CCC1C2C=C(c2cccnc2)C2(C)C(=O)CCC12 (centres unmarked),7-alpha-hydroxycholest-4-en-3-one 12-alpha-hydroxylase,inhibitor,,"80 µM, together with: 7α-hydroxycholest-4-en-3-one",,inhibition,no effect
CNC(=O)C1OC(n2cnc3c(NCc4cccc(I)c4)ncnc32)C(O)C1O (centres unmarked),SLC47A1,"transport, inhibitor",transiently transfected cells,"100 µM, 10 (unit not given), together with: metformin",,inhibition,85%
C[C@@H](c1ccc2nccn2c1)n1nnc2nc(O)c(-c3cnn(C)c3)nc21,CYP1A2,"enzyme activity, inhibitor","human, liver microsomes",,,IC50,> 50 µM
CCN(CC)CCOc1ccc(-c2nnn(Cc3ccc(OC)cc3)c2N)cc1,CYP1A2,inhibitor,,,,IC50,> 50 µM
CC12CCC3C4CCC(C#N)CC4CCC3C1CCC2O (centres unmarked),SCN5A,"ion current, blocker",,,,IC50,26 µM
Oc1c(Br)cccc1Br,CYP2E1,"p-nitrophenol hydroxylation, inhibitor",,with additive 100 µM,,IC50,35 µM
CSc1nc2[nH]nc([N+](=O)[O-])c(=O)n2n1,SLC47A1,"transport, inhibitor",transiently transfected cells,"100 µM, 10 (unit not given), together with: metformin",,inhibition,7.7%
CC(=O)NCCCC[C@@H]1NC(=O)[C@H](Cc2c[nH]c3c(C)cccc23)NC(=O)[C@H]([C@@H](C)O)NC(=O)[C@H](CC(N)=O)NC(=O)[C@@H](NC(C)=O)C(C)(C)SSC(C)(C)[C@@H](C(=O)N[C@@H](Cc2ccc(OCCN)cc2)C(=O)N[C@@H](Cc2ccc3ccccc3c2)C(=O)NC2(C(=O)N[C@@H](CCC(=O)O)C(=O)N[C@@H](CC(N)=O)C(=O)N[C@@H](Cc3cccnc3)C(=O)N(C)CC(N)=O)CCOCC2)NC1=O,human alpha-1-acid glycoprotein 0.07%,equilibrium dialysis,,0.01 µM,,fraction unbound,93.3 ± 0.6%
CC(C)NCCCn1c(Sc2cc3c(cc2I)OCO3)nc2c(N)ncnc21,epichaperome,PU-PET,"human, left lymph node lesion","140 mg/m^2, 24 h post-injection",,tumour concentration,2.3 µM
CC(=O)N[C@@H](CC(C)C)C(=O)N[C@H](C(=O)N[C@@H](Cc1ccccc1)C(=O)N[C@@]1(C)CSCCCCCCCCSC[C@@](C)(C(=O)N[C@@H](CO)C(N)=O)NC(=O)[C@H](CC(C)C)NC(=O)[C@H](CCC(N)=O)NC(=O)[C@H](C)NC(=O)[C@H](Cc2c[nH]c3ccccc23)NC(=O)[C@H](Cc2ccc(O)cc2)NC(=O)[C@H](CCC(=O)O)NC1=O)[C@@H](C)O,"Proteinase K (PROK, Engyodontium album, UniProt P06873)",proteolytic stability,,120 min,,remaining intact peptide,100%
Cc1cc(Br)c(O)c(Br)c1,CYP2E1,"p-nitrophenol hydroxylation, inhibitor",,with additive 100 µM,,Ki,2.1 µM
CCCCCCCC/C=C/CCCCCCCC(=O)[O][Pt-2]1([OH])([Cl])([NH+]=C(CC)N(C)CCNc2c3ccccc3[nH+]c3ccccc23)[NH2+]CCC[NH2+]1.O=[N+]([O-])[O-].O=[N+]([O-])[O-],bovine serum albumin,,FBS medium,,,protein-bound fraction,> 95%
O=S(=O)(F)c1cccc(S(=O)(=O)Nc2ccc(C3CC3)c(F)c2)c1,"GTPase KRas (KRAS, Homo sapiens, UniProt P01116)",covalent modification,,4 °C,,half-life,8.1 h
C[C@]12C(c3cccnc3)=C[C@H]3[C@@H](CCC4=C[C@H](O)CC[C@@]43C)[C@@H]1CC[C@@H]2O,7-alpha-hydroxycholest-4-en-3-one 12-alpha-hydroxylase,"12α-hydroxylation of 7α-hydroxycholest-4-en-3-one, inhibitor",,"80 µM, wild type",,inhibition,34%
C[C@@H](c1ccc2nccn2c1)n1nnc2ncc(-c3cn[nH]c3)nc21,CYP1A2,,human liver microsomes,"10 and 50 µM, 30 min preincubation, together with: ± NADPH",,time-dependent inhibition,< 20%
